Results collected from several papers.
Each numbered part is a random draw from the data of one study; scales do not carry over between parts.

Sample 1
Target: Sal-like protein 4, full length isoform A (SALL4, Homo sapiens, UniProt Q9UJQ4, residues 1-1053)
Chain of UniProt Q9UJQ4 (whole entry, looked up): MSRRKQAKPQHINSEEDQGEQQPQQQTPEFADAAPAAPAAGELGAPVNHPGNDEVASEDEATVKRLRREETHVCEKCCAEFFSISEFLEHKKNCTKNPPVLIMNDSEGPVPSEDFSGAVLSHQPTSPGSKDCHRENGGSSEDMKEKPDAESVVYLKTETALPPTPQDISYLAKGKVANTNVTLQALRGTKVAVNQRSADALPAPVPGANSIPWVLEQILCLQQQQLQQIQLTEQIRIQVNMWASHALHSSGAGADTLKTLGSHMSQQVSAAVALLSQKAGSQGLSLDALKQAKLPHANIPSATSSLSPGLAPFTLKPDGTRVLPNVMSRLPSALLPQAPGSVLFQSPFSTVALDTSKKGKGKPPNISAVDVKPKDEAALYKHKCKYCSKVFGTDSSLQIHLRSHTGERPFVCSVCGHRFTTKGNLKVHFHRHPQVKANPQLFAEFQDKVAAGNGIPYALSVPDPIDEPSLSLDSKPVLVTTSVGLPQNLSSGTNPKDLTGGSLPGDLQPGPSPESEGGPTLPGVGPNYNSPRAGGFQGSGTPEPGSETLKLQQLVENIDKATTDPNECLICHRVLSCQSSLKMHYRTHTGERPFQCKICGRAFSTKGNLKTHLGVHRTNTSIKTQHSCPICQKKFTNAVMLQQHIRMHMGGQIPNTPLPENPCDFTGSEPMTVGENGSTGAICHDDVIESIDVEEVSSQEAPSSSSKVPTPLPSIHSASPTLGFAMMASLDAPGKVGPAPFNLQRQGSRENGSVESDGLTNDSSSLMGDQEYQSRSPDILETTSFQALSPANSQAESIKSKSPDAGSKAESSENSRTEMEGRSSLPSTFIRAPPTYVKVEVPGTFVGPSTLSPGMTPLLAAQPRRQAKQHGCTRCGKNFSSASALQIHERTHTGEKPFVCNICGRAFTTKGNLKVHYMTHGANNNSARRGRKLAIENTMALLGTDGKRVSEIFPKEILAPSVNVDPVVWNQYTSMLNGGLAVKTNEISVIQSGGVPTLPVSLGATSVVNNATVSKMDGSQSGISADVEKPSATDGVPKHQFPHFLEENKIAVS
Method: universal PBM
Form: double-stranded DNA, one strand shown
Medium: in vitro
Concentration: 600 nM
Setting: 8-mer, flanks averaged, mean of replicates
Reading: higher = stronger binding
| Strand | E-score |
| --- | --- |
| CACCTTTC | -0.0755 |
| CGAGCCTA | -0.125 |
| GACATTGA | 0.0379 |
| AGTGCCAA | -0.0294 |
| CCCGGTTC | -0.358 |

Sample 2
Target: Centromere-binding protein 1, full length, N-terminal tag (CBF1, Saccharomyces cerevisiae, UniProt P17106, residues 1-351)
Chain of UniProt P17106 (whole entry, looked up): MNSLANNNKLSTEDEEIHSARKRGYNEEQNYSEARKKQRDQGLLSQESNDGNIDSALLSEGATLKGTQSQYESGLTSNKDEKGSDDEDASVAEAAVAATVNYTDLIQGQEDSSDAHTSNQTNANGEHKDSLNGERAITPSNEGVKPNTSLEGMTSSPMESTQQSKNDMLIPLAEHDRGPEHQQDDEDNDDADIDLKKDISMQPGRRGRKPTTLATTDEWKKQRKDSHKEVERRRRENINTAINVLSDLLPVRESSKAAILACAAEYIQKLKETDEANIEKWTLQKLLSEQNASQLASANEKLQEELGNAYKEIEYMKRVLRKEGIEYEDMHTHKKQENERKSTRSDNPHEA
Method: protein-binding microarray
Form: double-stranded DNA, one strand shown
Medium: in vitro
Concentration: 0.8 µM
Setting: whole 60-bp probe, no competitor
Reading: higher = stronger binding
Constant ends, left off below: … GTCTTGATTCGCTTGACGCTGCTG
| Strand | fluorescence intensity [a.u.] |
| --- | --- |
| CTAGTCAAAAAATCTCGTGAGACCTCCGGAATTTTC | 577 |
| CTAGTTTACAATAATCACGAAAATACATATAGGTTC | 544 |
| CTACTTTACTTACACCACCAAAAACCACTTTCGTTC | 567 |
| GAAAACATTATATGTCACCTCTTCATCCTAATGTAG | 539 |
| CTAAGACGTTGACACTAGGTGGTGGTTTATGGGTTC | 524 |
| CTAAAATAAAATGCGCACGAGTAGTTCTAACGCTTC | 606 |

Sample 3
Target: Histone acetyltransferase KAT6A, winged helix 2, GST fusion (KAT6A, Homo sapiens, UniProt Q92794, residues 85-181)
Method: protein binding microarray
Form: double-stranded DNA, one strand shown
Medium: in vitro
Concentration: not given
Setting: 8-mer, flanks averaged, mean of 2 arrays, mostly near background
Reference: not given
Reading: higher = stronger binding
Residues (chain): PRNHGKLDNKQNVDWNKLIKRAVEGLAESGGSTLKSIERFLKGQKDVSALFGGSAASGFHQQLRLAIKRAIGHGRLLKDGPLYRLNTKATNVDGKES
| Strand | E-score |
| --- | --- |
| CACGTGGA | -0.0283 |
| ATTCAAGC | 0.143 |
| ACTGAAAA | 0.0602 |
| ACCTCTAC | -0.129 |
| CGACCCCG | 0.029 |
| CCTGTACG | -0.0602 |

Mixed results
| Substance | target | test | system | conditions | scale | measurement | result |
| --- | --- | --- | --- | --- | --- | --- | --- |
| PhoQ, residues 284 288 289 292 302 303 TYGVAM | PhoP, residues 12 14 15 18 19 NHFRA (Escherichia coli, UniProt P23836) | Sort-seq, item: YFP reporter | E. coli | PhoQ-PhoP variant library, added: 10 µM Mg2+ | reference: high Mg2+ state, higher = stronger signaling | fold induction | 3.33 |

Excerpt of the above (sample 2):
| Strand | fluorescence intensity [a.u.] |
| --- | --- |
| GAAAACATTATATGTCACCTCTTCATCCTAATGTAG | 539 |
| CTACTTTACTTACACCACCAAAAACCACTTTCGTTC | 567 |
